Measurements of several laboratories.
Every numbered part comes from another study and shows a few of its results, in no order. Positions count from the first letter of the parent shown.

Sample 1
Target: ABI1, truncated, D143A, DHFR fusion (Arabidopsis thaliana)
Technique: DHFR PCA, deep sequencing
Medium: yeast
Setting: methotrexate growth selection, single substitutions
Together with: (+)-ABA 58 µM
Reference: wild-type fitted maximum
Direction: higher = stronger binding
Starting sequence: PYL1, truncated, DHFR fusion (Arabidopsis thaliana); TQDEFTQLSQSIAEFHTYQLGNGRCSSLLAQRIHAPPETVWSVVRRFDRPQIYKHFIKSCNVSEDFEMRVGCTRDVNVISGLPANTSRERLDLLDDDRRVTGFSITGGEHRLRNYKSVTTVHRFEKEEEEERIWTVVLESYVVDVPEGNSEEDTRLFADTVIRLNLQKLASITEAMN
Substitution | relative binding score
E151Q | 82.7%
Q19H | 83.8%
V121C | 71.1%
M176G | 85.8%
E38P | 45.8%
S9I | 68.8%
E14K | 71.9%
L138G | -2.68%
I79D | 22%
V62S | 41.8%
S140V | 4.38%
L93Q | 92%
R98G | 58.4%
Q51K | 29.5%

Sample 2
Target: CCNE2, cyclin fold, Cln2 fusion (human)
Technique: yeast growth competition, sequencing
Medium: yeast
Setting: strong parent motif
Reference: not given
Direction: higher = stronger binding
Starting sequence: WEE1 docking peptide (human); HKTFRKLRLFDTP; partner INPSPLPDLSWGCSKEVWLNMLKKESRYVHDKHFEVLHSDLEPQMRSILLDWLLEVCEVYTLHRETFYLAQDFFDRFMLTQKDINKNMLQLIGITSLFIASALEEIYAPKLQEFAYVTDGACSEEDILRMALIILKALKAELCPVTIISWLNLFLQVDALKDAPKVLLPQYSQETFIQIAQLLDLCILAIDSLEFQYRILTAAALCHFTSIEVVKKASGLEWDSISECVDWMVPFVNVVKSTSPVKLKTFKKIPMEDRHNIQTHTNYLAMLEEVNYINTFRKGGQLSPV
Substitution | normalised enrichment score
T3C | 0.111
H1N | 0.566
L7V | 0.402
T3W | 0.379
D11N | -0.562
H1S | 1.34
F4I | 0.633
T12I | 0.862
L9Y | 1.31
F4H | 1.09
L7I | 1.29
P13T | 0.43
K2L | 0.561

Sample 3
Target: Histone acetyltransferase KAT6A, winged helix 1, GST fusion (KAT6A, Homo sapiens, UniProt Q92794, residues 1-85)
Technique: protein binding microarray
Form: double-stranded DNA, one strand shown
Medium: in vitro
Concentration: not given
Setting: 8-mer, flanks averaged, mean of 2 arrays, mostly near background
Reference: not given
Direction: higher = stronger binding
Construct (chain): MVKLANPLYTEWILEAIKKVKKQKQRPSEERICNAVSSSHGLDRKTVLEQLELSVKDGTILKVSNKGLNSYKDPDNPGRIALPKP
Strand | E-score
CCGACTAA | 0.0253
CAACGTTG | -0.0135
CGCTGACG | 0.356
CCCCTGGA | -0.172
CTTATGGC | -0.0657
GGACTTAA | -0.0519
AAACATAT | 0.0352
CGACGTTC | 0.00773
GCGCAACA | 0.256
ATTGCTGC | -0.00132
ATTCATTG | -0.123
CACCCGTG | 0.15
GGCAGGCA | -0.154
ACGTAATC | 0.0384
ACCCAGTC | -0.00306
GAGGCCTC | -0.0967
AGAATGAT | -0.176

Single results of other studies
Substance | target | assay | system | setting | scale | measurement | result
PhoQ, residues 284 288 289 292 302 303 SCCLKL | PhoP, residues 12 14 15 18 19 SFCSL (Escherichia coli, UniProt P23836) | Sort-seq, measured: YFP reporter | E. coli | PhoQ-PhoP variant library, together with: 10 µM Mg2+ | reference: high Mg2+ state, higher = stronger signaling | fold induction | 8.45

Some of these lines once more (sample 3):
Strand | E-score
CTTATGGC | -0.0657
CGACGTTC | 0.00773
CCGACTAA | 0.0253
ATTCATTG | -0.123
GCGCAACA | 0.256
GAGGCCTC | -0.0967
